Results pooled from the literature.
A part holds a random share of what one study measured.
UniProt Q9UK32, sequence (whole entry, looked up): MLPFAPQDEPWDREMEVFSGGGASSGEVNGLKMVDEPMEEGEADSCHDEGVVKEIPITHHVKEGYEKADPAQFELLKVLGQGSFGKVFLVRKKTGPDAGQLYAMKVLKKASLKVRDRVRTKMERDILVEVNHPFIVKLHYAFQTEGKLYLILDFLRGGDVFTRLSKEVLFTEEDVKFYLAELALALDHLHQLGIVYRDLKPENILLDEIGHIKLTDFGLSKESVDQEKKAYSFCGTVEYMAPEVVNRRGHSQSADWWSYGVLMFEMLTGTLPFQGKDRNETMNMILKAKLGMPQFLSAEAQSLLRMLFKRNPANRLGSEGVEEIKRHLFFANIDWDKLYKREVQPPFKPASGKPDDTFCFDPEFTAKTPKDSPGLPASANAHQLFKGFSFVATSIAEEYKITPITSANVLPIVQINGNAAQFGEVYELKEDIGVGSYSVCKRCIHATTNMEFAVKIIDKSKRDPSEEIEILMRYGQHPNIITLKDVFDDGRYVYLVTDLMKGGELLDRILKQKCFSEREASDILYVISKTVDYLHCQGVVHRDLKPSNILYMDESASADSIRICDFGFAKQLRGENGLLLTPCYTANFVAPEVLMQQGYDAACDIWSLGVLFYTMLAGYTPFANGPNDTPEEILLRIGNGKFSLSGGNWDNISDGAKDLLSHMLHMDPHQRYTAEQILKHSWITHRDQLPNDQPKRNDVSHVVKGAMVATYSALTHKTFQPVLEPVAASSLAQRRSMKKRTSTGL
UniProt P45985, sequence (whole entry, looked up): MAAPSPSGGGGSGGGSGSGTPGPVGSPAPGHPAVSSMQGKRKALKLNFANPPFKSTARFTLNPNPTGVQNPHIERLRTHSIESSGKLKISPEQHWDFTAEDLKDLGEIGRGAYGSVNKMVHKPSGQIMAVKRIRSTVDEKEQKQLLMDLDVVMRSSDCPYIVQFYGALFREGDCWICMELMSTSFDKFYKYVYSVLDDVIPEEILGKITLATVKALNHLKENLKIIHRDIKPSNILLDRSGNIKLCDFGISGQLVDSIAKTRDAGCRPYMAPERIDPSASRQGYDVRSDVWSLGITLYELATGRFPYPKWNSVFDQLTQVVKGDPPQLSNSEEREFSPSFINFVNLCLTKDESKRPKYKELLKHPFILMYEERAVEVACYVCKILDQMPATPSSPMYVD
UniProt Q59H18, sequence (whole entry, looked up): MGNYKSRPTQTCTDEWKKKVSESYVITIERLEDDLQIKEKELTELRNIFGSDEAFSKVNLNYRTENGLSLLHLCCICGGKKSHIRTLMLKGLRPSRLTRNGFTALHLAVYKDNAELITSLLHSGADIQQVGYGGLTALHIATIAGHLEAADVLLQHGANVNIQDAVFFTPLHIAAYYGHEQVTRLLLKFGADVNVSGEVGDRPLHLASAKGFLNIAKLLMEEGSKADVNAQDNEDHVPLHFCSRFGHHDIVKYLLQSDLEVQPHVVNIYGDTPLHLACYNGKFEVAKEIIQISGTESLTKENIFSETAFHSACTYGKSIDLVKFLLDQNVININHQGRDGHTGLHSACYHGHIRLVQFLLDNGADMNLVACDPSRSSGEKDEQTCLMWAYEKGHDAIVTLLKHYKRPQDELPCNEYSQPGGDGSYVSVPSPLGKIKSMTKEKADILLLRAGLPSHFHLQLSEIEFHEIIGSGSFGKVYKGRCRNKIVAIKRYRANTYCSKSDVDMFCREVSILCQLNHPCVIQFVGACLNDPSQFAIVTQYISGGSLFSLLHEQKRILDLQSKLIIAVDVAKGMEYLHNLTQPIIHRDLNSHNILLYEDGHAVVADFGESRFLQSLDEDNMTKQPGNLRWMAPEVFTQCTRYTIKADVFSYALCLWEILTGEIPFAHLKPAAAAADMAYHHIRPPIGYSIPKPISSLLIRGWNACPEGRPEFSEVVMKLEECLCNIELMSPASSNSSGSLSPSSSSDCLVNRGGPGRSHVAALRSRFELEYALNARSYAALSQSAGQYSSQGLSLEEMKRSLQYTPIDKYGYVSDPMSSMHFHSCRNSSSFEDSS
UniProt Q9P1W9, sequence (whole entry, looked up): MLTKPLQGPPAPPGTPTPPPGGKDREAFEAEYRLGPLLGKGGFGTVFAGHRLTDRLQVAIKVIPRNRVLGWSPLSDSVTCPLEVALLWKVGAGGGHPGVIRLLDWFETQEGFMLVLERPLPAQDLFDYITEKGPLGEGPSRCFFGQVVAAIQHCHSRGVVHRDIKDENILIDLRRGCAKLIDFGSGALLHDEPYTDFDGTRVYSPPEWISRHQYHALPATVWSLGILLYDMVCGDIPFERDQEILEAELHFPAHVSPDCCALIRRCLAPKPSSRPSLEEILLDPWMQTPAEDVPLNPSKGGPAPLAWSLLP
UniProt O14757, sequence (whole entry, looked up): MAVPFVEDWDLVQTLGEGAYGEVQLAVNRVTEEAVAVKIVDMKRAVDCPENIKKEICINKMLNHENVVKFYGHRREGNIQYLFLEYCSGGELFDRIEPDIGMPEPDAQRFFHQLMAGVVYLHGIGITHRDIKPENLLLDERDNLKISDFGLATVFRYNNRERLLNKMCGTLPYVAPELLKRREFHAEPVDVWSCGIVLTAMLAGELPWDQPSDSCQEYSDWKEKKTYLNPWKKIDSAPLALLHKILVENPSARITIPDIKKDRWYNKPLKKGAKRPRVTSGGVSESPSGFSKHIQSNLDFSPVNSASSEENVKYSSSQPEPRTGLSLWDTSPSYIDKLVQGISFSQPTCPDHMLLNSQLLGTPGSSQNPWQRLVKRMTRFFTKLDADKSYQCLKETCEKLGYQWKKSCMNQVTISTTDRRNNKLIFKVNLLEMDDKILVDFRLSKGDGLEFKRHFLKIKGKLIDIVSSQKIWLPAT
UniProt Q9Y5S2, sequence (whole entry, looked up): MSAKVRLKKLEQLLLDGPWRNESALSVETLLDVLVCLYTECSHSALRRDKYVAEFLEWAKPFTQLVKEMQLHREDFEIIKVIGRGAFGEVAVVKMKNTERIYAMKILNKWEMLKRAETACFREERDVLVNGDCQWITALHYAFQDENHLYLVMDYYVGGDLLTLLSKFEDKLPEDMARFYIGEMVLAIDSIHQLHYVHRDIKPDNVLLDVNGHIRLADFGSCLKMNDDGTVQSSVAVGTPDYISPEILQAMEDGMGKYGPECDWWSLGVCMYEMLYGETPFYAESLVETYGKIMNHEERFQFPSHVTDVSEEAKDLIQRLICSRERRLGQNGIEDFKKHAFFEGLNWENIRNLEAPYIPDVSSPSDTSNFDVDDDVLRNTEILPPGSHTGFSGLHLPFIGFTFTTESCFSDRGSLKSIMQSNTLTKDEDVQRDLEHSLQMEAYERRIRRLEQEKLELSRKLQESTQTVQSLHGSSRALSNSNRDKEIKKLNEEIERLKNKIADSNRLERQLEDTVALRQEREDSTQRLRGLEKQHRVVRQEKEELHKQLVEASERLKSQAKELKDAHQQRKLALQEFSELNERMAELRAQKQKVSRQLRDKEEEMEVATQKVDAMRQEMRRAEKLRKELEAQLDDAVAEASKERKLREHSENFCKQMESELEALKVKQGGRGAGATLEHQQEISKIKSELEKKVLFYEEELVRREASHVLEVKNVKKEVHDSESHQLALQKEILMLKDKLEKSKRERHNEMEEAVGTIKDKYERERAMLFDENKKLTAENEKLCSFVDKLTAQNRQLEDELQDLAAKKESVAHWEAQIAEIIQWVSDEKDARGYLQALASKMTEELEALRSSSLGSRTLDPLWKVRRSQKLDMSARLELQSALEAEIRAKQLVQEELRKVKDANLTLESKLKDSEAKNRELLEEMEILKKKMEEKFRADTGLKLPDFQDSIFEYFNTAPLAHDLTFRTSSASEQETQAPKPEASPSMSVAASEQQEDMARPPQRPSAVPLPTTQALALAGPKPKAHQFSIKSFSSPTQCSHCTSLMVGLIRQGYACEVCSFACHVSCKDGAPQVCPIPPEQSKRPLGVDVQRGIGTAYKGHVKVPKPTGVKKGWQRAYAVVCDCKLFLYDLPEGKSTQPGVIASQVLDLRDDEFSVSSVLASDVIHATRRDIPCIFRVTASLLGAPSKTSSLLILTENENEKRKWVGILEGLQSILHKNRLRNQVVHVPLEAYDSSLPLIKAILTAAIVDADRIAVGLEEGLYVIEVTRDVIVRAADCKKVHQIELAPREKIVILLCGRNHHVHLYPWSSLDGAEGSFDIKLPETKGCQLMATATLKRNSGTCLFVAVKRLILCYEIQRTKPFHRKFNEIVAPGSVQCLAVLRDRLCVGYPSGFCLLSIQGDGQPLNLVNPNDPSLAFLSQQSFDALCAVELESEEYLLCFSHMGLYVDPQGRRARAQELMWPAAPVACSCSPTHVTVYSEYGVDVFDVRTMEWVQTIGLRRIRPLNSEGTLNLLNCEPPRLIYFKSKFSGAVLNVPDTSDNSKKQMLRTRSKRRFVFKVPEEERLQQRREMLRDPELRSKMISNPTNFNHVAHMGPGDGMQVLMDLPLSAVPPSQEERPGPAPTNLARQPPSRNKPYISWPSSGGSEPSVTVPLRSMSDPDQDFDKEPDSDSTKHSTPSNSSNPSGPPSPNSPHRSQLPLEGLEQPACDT
UniProt Q96BR1, sequence (whole entry, looked up): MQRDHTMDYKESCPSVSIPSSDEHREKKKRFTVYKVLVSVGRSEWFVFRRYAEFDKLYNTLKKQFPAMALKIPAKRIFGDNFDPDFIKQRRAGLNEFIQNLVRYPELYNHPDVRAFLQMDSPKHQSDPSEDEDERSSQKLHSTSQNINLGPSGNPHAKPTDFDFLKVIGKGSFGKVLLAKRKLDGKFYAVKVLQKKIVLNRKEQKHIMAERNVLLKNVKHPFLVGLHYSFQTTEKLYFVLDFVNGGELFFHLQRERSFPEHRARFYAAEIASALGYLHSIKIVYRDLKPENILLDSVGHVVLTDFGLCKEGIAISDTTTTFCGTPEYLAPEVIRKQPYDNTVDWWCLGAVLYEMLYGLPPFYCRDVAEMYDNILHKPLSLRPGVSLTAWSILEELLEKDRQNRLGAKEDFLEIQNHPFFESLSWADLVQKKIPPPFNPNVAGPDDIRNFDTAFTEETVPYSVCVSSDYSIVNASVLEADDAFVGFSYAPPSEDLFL

Study 1
SMILES: C[C@H](c1ccnc(Nc2nc3ccc(-c4cc(N(C)C)ncn4)cc3[nH]2)c1)N1CCN(C(=O)CC(F)(F)F)CC1
Observed: cell-free assay
Method: competition with immobilised ligand
Concentration: 0.1 µM
The remaining binding was 100% (Tyrosine-protein kinase ABL1, phosphorylated (ABL1, Homo sapiens, UniProt P00519, M351T)).
The remaining binding was 100% (Serine/threonine-protein kinase MRCK beta (CDC42BPB, Homo sapiens, UniProt Q9Y5S2)).
For TGF-beta receptor type-2 (TGFBR2, Homo sapiens, UniProt P37173): remaining binding read 98%.
The remaining binding was 100% (Receptor-type tyrosine-protein kinase FLT3 (FLT3, Homo sapiens, UniProt P36888, ITD)).
It gave 100% for remaining binding (Serine/threonine-protein kinase Sgk3 (SGK3, Homo sapiens, UniProt Q96BR1)).
For Mast/stem cell growth factor receptor Kit (KIT, Homo sapiens, UniProt P10721): remaining binding read 88%.
The remaining binding was 95% (Homeodomain-interacting protein kinase 1 (HIPK1, Homo sapiens, UniProt Q86Z02)).
Serine/threonine-protein kinase TNNI3K (TNNI3K, Homo sapiens, UniProt Q59H18) — remaining binding: 59%.
The remaining binding was 56% (Ribosomal protein S6 kinase alpha-6, C-terminal kinase domain (RPS6KA6, Homo sapiens, UniProt Q9UK32)).
It gave 100% for remaining binding (Serine/threonine-protein kinase pim-2 (PIM2, Homo sapiens, UniProt Q9P1W9)).
It gave 87% for remaining binding (Serine/threonine-protein kinase Chk1 (CHEK1, Homo sapiens, UniProt O14757)).
The remaining binding was 97% (ALK tyrosine kinase receptor (ALK, Homo sapiens, UniProt Q9UM73)).
The remaining binding was 100% (Dual specificity mitogen-activated protein kinase kinase 4 (MAP2K4, Homo sapiens, UniProt P45985)).
For Ephrin type-A receptor 6 (EPHA6, Homo sapiens, UniProt Q9UF33): remaining binding read 93%.

Study 2
Cell line: mouse MPNST tumor cells
Method: high-content nuclear imaging
Item: cell number
Concentration: 10 µM
Time: 12 h
Notes: mean of 2 replicates
Reference: plate mean
Reading: higher = more cells
`CO[C@@]1(NC(=O)C2SC(=C(C(N)=O)C(=O)O)S2)C(=O)N2C(C(=O)O)=C(CSc3nnnn3C)CS[C@@H]21` (stereo partly drawn) gave a nuclei count of 0.321 z-score.
For `O=C(CN1CCN(C(=O)c2ccco2)CC1)Nc1cc(C(F)(F)F)ccc1Cl`, the nuclei count was -0.0166 z-score.
`O=C(Nc1cc2cc[nH]c2cn1)c1ccccc1` has a nuclei count of -0.17 z-score.
For `COc1ccc(-c2cc(=O)c3c(O)cc(O[C@@H]4O[C@H](CO[C@@H]5O[C@@H](C)[C@H](O)[C@@H](O)[C@H]5O)[C@@H](O)[C@H](O)[C@H]4O)cc3o2)cc1O`, the nuclei count was 0.544 z-score.
For `COC1CCN(c2cccc(-c3cc(NC(C)=O)nc(-n4nc(C)cc4C)n3)n2)CC1`, the nuclei count was 4.68 z-score.
`CCCC(CCC)C(=O)NCc1ccc2c(cnn2-c2ccccc2OC)c1` gave a nuclei count of 1.55 z-score.

Study 3
Target: Serine/threonine-protein kinase Nek7 (NEK7, Homo sapiens, UniProt Q8TDX7)
Observed: enzyme activity
Action: inhibitor
Concentration: 0.5 µM
Reference: control
Construct (Q8TDX7 1-302): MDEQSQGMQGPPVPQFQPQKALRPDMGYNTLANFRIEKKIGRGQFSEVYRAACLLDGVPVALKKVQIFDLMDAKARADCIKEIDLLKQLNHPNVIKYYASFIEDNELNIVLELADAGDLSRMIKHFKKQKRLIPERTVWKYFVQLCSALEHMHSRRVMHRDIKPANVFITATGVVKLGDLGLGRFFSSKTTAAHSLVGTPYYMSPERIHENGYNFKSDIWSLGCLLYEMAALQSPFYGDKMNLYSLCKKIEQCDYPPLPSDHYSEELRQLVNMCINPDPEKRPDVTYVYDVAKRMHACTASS
For `COc1cc2ncnc(Nc3cccc(Cl)c3)c2cc1OC`, the remaining activity was 99%.
The remaining activity of `Cc1cc2ncc(-c3ccccc3)nc2cc1C` is reported as 102%.
`c1ccc(-c2cnc(Nc3ccc(OCCN4CCCC4)cc3)s2)cc1` has a remaining activity of 100%.
With `O=C(NC(NC(=S)Nc1ccc(F)c([N+](=O)[O-])c1)C(Cl)(Cl)Cl)C(c1ccccc1)c1ccccc1` (stereo not drawn) the remaining activity was 102%.
The remaining activity of `O=C(Nc1cccc(Nc2nccc(Nc3cccc(C(F)(F)F)c3)n2)c1)C1CC1` is reported as 116%.
The remaining activity of `CCN(CC)CCNC(=O)c1c(C)[nH]c(/C=C2\C(=O)Nc3ccc(F)cc32)c1C` is reported as 93.5%.
`O=C1c2ccccc2-c2n[nH]c3cccc1c23` has a remaining activity of 103%.
For `COc1cc2ncnc(Nc3ccc(O)c(Br)c3)c2cc1OC`, the remaining activity was 101%.
The remaining activity of `N#C/C(=C\c1ccc(O)c(O)c1)C(=O)NCc1ccccc1` is reported as 111%.
The remaining activity of `Cc1cn(-c2cc(NC(=O)c3ccc(C)c(Nc4nccc(-c5cccnc5)n4)c3)cc(C(F)(F)F)c2)cn1` is reported as 95.5%.
`c1ccc(-c2[nH]ncc2-c2ccnc3ccccc23)nc1` gave a remaining activity of 102%.
`CCN(CC)C(=O)c1ccc(Nc2nc(OCC3CCCCC3)c3[nH]cnc3n2)cc1` has a remaining activity of 103%.
`O=c1cc(-c2cccc3c2Sc2ccccc2S3)oc(N2CCOCC2)c1` has a remaining activity of 105%.
With `N#Cc1c(NC(=O)c2cccc3ccccc23)sc2c1CCCC2` the remaining activity was 89.2%.
The remaining activity of `O=C1C(Cl)=C(N2C(=O)CCC2=O)C(=O)c2ccccc21` is reported as 95.4%.
The remaining activity of `CCOc1nc(NC(=O)Cc2cc(OC)ccc2OC)cc(N)c1C#N` is reported as 93.5%.
`Ic1cccc(CSc2nnc(-c3ccncc3)o2)c1` has a remaining activity of 102%.
`Cn1nc2c3c(cccc31)C(=O)c1ccccc1-2` has a remaining activity of 93.1%.
The remaining activity of `Nc1cccc(-c2cc3c(Oc4cccc(O)c4)ncnc3[nH]2)c1` is reported as 99.4%.
With `CCN(CC)CCNC(=O)c1c(C)[nH]c(/C=C2\C(=O)Nc3ccc(Cl)cc32)c1C` the remaining activity was 99.3%.
With `Cc1nc2cc3nc(-c4cccs4)cnc3cc2n1C` the remaining activity was 86.5%.
The remaining activity of `COc1cc2c(cc1OC)-c1[nH]nc(Nc3cccc(F)c3)c1C2` is reported as 100%.
With `CN([C@@H](Cc1ccc(OS(=O)(=O)c2cccc3cnccc23)cc1)C(=O)N1CCN(c2ccccc2)CC1)S(=O)(=O)c1cccc2cnccc12` the remaining activity was 93.3%.
For `CN(C)C[C@H]1CCn2c(c(C3=C(c4cn(C)c5ccccc45)C(=O)NC3=O)c3ccccc32)C1`, the remaining activity was 100%.

Study 4
Structure (SMILES): COc1cc(C(=O)N2CCC(N3CCN(C)CC3)CC2)ccc1Nc1ncc2c(n1)N(C)c1ccccc1C(=O)N2C
Method: KINOMEscan
Concentration: 10 µM
Reference: DMSO control
Reading: lower = stronger binding
CLK2 — binding: 72%.
For FLT1: binding read 100%.
The binding was 67% (DAPK2).
The binding was 100% (RET).
For MEK4: binding read 100%.
PRKD3 — binding: 42%.
DAPK3 — binding: 67%.
TNK2 — binding: 18%.
RIPK5 — binding: 16%.

Other studies, line by line
The concentration of `CNC(=O)c1ccc(-c2cnn3ccc(C(=O)N(C[C@H]4CCC(=O)O4)c4ccc(OC(F)(F)F)cc4)cc23)cc1` is reported as 3.1 nM (female C57BL/6 mouse, plasma; oral, 10 mg/kg, 4 h).
